Measurements from different studies.
A part holds a random share of what one study measured.

Block 1 — technique: RNA Bind-n-Seq; molecule type: RNA; medium: in vitro; concentration: not given; relative to: input RNA pool; direction: higher = stronger binding
Target: RING finger protein unkempt homolog, zinc fingers 1-6, GST-SBP tag (UNK, Homo sapiens, UniProt Q9C0B0, residues 30-357)
Notes: RNA with constant flanks, human and mouse sites, ends assumed
Construct (chain): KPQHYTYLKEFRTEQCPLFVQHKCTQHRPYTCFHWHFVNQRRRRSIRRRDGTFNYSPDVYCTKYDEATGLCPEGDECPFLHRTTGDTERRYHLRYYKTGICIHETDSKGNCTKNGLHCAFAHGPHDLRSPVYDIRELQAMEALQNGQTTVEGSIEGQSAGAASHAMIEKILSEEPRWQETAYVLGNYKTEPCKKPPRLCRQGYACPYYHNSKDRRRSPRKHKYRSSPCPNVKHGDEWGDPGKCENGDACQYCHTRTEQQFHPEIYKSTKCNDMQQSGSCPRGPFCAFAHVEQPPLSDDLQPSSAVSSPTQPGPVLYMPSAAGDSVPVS
`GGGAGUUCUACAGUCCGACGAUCUUAUGGAGGUACAUACGCUCUGAGAGAUCCAUAAUACUAAUUAACUUCUGCCUGUCUAUCAUCUCAUCCAAUAUCCUCAUACUGGUUGGACAGACUCAGACACAUAAUAAGAGUAUCUGCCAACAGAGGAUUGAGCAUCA` gave a bound/input enrichment of 0.222 ratio.
With `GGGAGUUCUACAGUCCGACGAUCCCUCUUCCUACAAAUUUCAGUUUUAAAGGACAAAACCAGCUGAAGUUUGUUGCUGCUUCCUAUGAUAUACGAGGAAACUUCAUCAAAUGGCAACCUUUAGAAGGUGGUGUUUUACAGCUUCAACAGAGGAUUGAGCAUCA` the bound/input enrichment was 0.279 ratio.
The bound/input enrichment of `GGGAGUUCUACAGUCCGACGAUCUCUUCCCUGGAGUACAGCAUUAGAGUCUACUGCCUGGAUGACACACAGGAUGCCCUGAAGGAAGUUCUACAACUGGAGAGGCAAAUGGGAGGACAGCUCCUAGAAGAACCCAAGGCUCUUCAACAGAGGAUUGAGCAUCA` is reported as 0.0775 ratio.
`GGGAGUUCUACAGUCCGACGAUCCGGAAGUGAUCCCCUGCGUGGCUGGGCUGCUCGGGUUAGAUCGUCAGGAAAAGCCUAAAGAUUAGACUGUAAGAAAAGAAAAUAGAAGCCAUGUUUCGAAGACCUGUAUUACAGGUACUUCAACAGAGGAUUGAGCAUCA` gave a bound/input enrichment of 1.89 ratio.
`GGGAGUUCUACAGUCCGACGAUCCCUGCCUCAGCCUCCCAAGUAGCUGGUACUACAGGUGCGUGCCACCACACCUGGCUUAUUUUAGUUAUUUUAGUAGAGAUAGGGUUUCACCAUGUUGGCCAGGCUGGUCUCGGAACUCCUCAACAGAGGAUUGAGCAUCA` gave a bound/input enrichment of 2.98 ratio.
`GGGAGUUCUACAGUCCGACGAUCAUUUGUGAAGUAAUUAAUGAAGCAGUAUGGAAGCAUAAUAUAAUUUAUGUUUCAAGUGCUGGAAAUAAUGGUCCAUGCCUGUCUACAGUUGGUUGUCCAGGUGGAACUACAUCAAGUGUGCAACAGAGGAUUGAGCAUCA` gave a bound/input enrichment of 0.172 ratio.
For `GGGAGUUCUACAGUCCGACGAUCGAGUGUGUGCUUGUGGAGUGGCGAGAUGGAUCAGAGAAGAACAAAGAGUUUCUUCCUCGAUUAGGAUCUUCUAUUGAGCACAUCUCUGUCUCACCUGCAGGAGAUUUGUUCUGUACUUCUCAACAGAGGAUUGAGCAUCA`, the bound/input enrichment was 0.113 ratio.
For `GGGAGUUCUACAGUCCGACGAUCAGCCAGUCUGUCUGUGAUUAUUUCUUUGAAGCUCAAGAGAAAGCUGCUGAUGUUGAAAAUGUACCACCUGUCAUUUCAACACCUCACCACUACCUCAUCAGUAUCUACCGGGAUAAGCUCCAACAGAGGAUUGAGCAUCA`, the bound/input enrichment was 0.0965 ratio.
`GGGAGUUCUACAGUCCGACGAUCGUAGGCUAUCCAGGAGACCCAGUUUAUUGGUUGGGAAAAUACAGAAAUGAAGAGUGUGACCCAGGUGGCUGUCUUCUUGAACUGACAACUCAGCUGACAAUAAUCAUGGGAGGAAAAGCACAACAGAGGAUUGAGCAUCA` has a bound/input enrichment of 0.192 ratio.

Block 2 — technique: protein binding microarray; molecule type: double-stranded DNA, one strand shown; medium: in vitro; concentration: not given; relative to: not given; direction: higher = stronger binding
Target: Histone acetyltransferase KAT6A, winged helix 2, GST fusion (KAT6A, Homo sapiens, UniProt Q92794, residues 85-181)
Notes: 8-mer, flanks averaged, mean of 2 arrays, mostly near background
Construct (chain): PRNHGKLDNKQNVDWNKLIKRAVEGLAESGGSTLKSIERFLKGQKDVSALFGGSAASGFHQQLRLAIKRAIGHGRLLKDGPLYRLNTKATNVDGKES
`TATGCTGA` gave an E-score of 0.0269.
The E-score of `AAAGGTCA` is reported as 0.0438.
The E-score of `AGCTGCTC` is reported as -0.0754.
With `GCTAGCCC` the E-score was -0.165.
`TGGAGTAA` gave an E-score of 0.0456.
`TGGTCAAA` has an E-score of 0.0301.
For `AGGTATCA`, the E-score was -0.0932.
`ATTCGCAA` gave an E-score of 0.182.
The E-score of `CGCATCCA` is reported as 0.0342.
`CATTGCAC` gave an E-score of 0.108.
For `ACTTATCC`, the E-score was -0.117.
`AACAAAAG` has an E-score of 0.0601.
With `ACCTCTGA` the E-score was -0.0193.

Block 3 — technique: protein-binding microarray; molecule type: double-stranded DNA, one strand shown; medium: in vitro; concentration: 2540 nM top; notes: 60-bp whole probe; with: salmon DNA 0.4 mg/ml; relative to: random background probes; direction: higher = stronger binding; constant ends, left off below: GCCTAGCAC … GTCTTGATTCGCTTGACGCTGCTG
Target: Interferon regulatory factor 3, full length, phosphomimetic (IRF3, Homo sapiens, UniProt Q14653, residues 1-427, S386D/S396D/S398D/S402D/T404D/S405D)
Residues (chain): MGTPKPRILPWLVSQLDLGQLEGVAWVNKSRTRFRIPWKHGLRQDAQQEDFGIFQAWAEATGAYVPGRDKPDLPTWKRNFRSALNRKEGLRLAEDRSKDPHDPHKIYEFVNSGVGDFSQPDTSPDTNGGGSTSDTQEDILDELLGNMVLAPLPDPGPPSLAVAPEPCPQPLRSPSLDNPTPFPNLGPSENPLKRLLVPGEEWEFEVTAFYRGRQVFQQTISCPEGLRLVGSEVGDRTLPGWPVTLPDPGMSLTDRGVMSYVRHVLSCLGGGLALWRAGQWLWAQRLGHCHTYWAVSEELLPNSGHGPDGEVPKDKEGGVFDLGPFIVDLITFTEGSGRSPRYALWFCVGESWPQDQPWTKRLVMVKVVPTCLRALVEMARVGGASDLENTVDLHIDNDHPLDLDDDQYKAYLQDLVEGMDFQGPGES
For `GATTTTTTCTGCTTAGAGCTGTGCTAG`, “fitted relative affinity” read 0.631 z-score.
For `GTAGGACTGCTTATCCTTTAGTGCTAG`, “fitted relative affinity” read -0.25 z-score.
`GACGGTTTCGGTTTTCGGGACGTGCTA` — result for “fitted relative affinity”: 9.99 z-score.
For `TTAGGTTTCCTTATCCTCTAGTGCTAG`, “fitted relative affinity” read 8.46 z-score.
`TTAGAACTGGGAACTGGATTAGTGCTA` — result for “fitted relative affinity”: -0.409 z-score.
`TCATTTTACTTTCTGAAACTGTGCTAG`: “fitted relative affinity” 4.49 z-score.
`AGGACTCGAATCCTGCAGGGGTGCTAG`: “fitted relative affinity” -0.144 z-score.
`TGTGTTTTCACTTTTCCTACGTGCTAG`: “fitted relative affinity” 3.34 z-score.
For `GACGAACTTAGACTGGAGACGTGCTAG`, “fitted relative affinity” read -0.16 z-score.

Single results of other studies
`EIF4A3 (Homo sapiens, UniProt P38919)` — result for cross-linked residues: “K374 to E159” (PNN (Homo sapiens, UniProt Q9H307); cross-linking MS; cell fractions; with: DMTMM).
`PhoQ, residues 284 288 289 292 302 303 TLSLKA` has a fold induction of 0.249 (PhoP, residues 12 14 15 18 19 GQALL (Escherichia coli, UniProt P23836); Sort-seq, item: YFP reporter; E. coli; PhoQ-PhoP variant library, with: 10 µM Mg2+; relative to: high Mg2+ state, higher = stronger signaling).
`BMS1 (Homo sapiens, UniProt Q14692)`: cross-linked residues “K1265 to K202” (FSAF1 (Homo sapiens, UniProt Q8NDD1); cross-linking MS; cell fractions; with: DSSO).
